Experimental data collected from several papers.
A part holds a random share of what one study measured.

Study 1
Target: Ras GTPase-activating protein-binding protein 1, full length (G3BP1, Homo sapiens, UniProt Q13283)
UniProt Q13283, sequence (whole entry, looked up): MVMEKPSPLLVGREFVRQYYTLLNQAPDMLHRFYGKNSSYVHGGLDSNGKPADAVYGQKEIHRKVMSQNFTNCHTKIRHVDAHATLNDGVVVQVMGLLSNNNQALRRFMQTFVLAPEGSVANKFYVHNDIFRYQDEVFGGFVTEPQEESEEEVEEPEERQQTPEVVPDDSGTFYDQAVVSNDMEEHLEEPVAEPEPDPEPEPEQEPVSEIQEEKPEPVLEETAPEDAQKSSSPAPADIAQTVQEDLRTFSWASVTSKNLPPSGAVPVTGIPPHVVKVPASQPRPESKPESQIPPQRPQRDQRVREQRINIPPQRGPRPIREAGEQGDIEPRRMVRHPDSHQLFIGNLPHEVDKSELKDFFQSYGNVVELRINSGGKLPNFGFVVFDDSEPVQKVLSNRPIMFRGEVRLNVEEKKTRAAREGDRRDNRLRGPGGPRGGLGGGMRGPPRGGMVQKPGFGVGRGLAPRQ
Method: RNA Bind-n-Seq
Molecule type: RNA
Sample: in vitro
Concentration: 200 nM
Setting: whole 134-nt RNA, ends assumed
With: 150 mM KCl
Baseline: input library
Direction: higher = stronger binding
All sequences stand within: GGGAGUUCUACAGUCCGACGAUC … UGGAAUUCUCGGGUGUCAAGG
| Oligonucleotide | log2 enrichment |
| --- | --- |
| GCAGGAAGUCAAAACAAAUGGAAAUGCUUCGGAUAGUGGCAGGGGUGGGGGUUGCUAAGGAAAGGGUGGGAUGGGAGUGGGUAAAGAGUU | 0.856 |
| UGGGAGGUGGAUUUUGUUUAUUUUUUUAGCUCAUUUCCAGGGGUGGGAAUUUUUUUUUAAUAUGUGUCAUGAAUAAUGUUGUUUUUGAAA | 0.16 |
| CAAGUCCUGUGCUACACAUCGUAUGUACCGAAUCGGGAAAGGGAAAGGGUUUGGGAAAGUAUUAUGUUACGCCGUUCGGAUCUGCACUUC | 0.474 |
| UCCUGUGCUACACAUCGUAUGUACCGAAUCAAAUUUUUUUAAACCCCCAAACCCCCAAAAAAGUAUUAUGUUACGCCGUUCGGAUCUGCA | -0.198 |
| UCCUGUGCUACACAUCGUAUGUACCGAAUCGGAAAAAAGGGAAAAAAGGAAAAAAGGGGAAAGUAUUAUGUUACGCCGUUCGGAUCUGCA | -1.02 |
| UCCUGUGCUACACAUCGUAUGUACCGAAUCGGGCCCCCGGGGCCCCCGGGGCCCCCGGGAAAGUAUUAUGUUACGCCGUUCGGAUCUGCA | 0.167 |
| UAACUUUAGAGGAGGAUCUGAUGGAUAUGGCAGUGGACGUGGAUUUGGGGAUGGCUUUAAUGGGUAUGGAGGAGGACCUGGAGGUGGCAA | 0.22 |
| UCAAGUCCUGUGCUACACAUCGUAUGUACCGAAUCGGAAAAAGGUUUGGAAAGGAAAGUAUUAUGUUACGCCGUUCGGAUCUGCACUUCC | -1.27 |
| UGGGAGGUGGAUUUUGUUUAUUUUUUUAGCUCAUUUCCAGGGGUGGGAAUUUUUUUUUAAUAUGUGUCAUGAAUAAAGUUUUUUUUGAAA | 0.173 |
| UCCUGUGCUACACAUCGUAUGUACCGAAUCGGGAAAAAGGGGAAAAAGGGGAAAAAGGGAAAGUAUUAUGUUACGCCGUUCGGAUCUGCA | -0.0294 |
| ACCAUGCAGGUGGGCAUCUUUGGGAAGUGGGGCAAGGGGGGGAUAGGGAGGGGGGUAACACUUUGGGAACAGGUGGUCCCAGGUAGUUUC | 1.12 |
| CACAGACAACACGCACCCACACAGACACAGAGGGAAGGGGUUGGGAUGGGGACAGGGUGCACACCAGGGCGGGGUAGGACCCCAGCCCCU | 1.91 |
| UCCUGUGCUACACAUCGUAUGUACCGAAUCGGGUUUGGGAAAAAAAGGGUUUUUUUGGGAAAGUAUUAUGUUACGCCGUUCGGAUCUGCA | -0.236 |
| UGGCAGAGAAAUUGCAGCUGCAGGAGCAGCUCCAGGCAGAAACCGAGCUGUGUGCCGAGGCUGAGGAGCUCCGGGCCCGCCUGACCGCCA | -0.34 |

Study 2
Target: Histone acetyltransferase KAT6A, winged helix 1, GST fusion (KAT6A, Homo sapiens, UniProt Q92794, residues 1-85)
Method: protein binding microarray
Molecule type: double-stranded DNA, one strand shown
Sample: in vitro
Concentration: not given
Setting: 8-mer, flanks averaged, mean of 2 arrays, mostly near background
Baseline: not given
Direction: higher = stronger binding
Construct (chain): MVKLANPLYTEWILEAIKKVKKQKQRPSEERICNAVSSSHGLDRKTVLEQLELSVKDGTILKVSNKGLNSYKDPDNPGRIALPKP
| Oligonucleotide | E-score |
| --- | --- |
| ATGCATTA | -0.214 |
| GGAGGGAC | -0.00826 |
| ATGAAAAC | 0.0151 |
| GAATGAAC | -0.0961 |
| CTTAATCA | -0.183 |
| TCAAGCCA | -0.12 |
| AGTTCCAC | -0.138 |
| GCTTTCAA | -0.0109 |
| TAGAACTA | -0.145 |
| AGACCGTC | 0.203 |
| ACAATGCG | 0.197 |
| CGATCGCC | 0.294 |
| CGTTCATC | 0.0314 |
| GATATTGA | -0.0772 |
| AGTATTTA | -0.173 |
| CAACTTCA | -0.276 |
| ATTACAGG | 0.064 |
| CAATACCG | 0.293 |

Study 3
Target: Centromere-binding protein 1, full length, His-tagged (CBF1, Saccharomyces cerevisiae, UniProt P17106, residues 1-351)
UniProt P17106, sequence (whole entry, looked up): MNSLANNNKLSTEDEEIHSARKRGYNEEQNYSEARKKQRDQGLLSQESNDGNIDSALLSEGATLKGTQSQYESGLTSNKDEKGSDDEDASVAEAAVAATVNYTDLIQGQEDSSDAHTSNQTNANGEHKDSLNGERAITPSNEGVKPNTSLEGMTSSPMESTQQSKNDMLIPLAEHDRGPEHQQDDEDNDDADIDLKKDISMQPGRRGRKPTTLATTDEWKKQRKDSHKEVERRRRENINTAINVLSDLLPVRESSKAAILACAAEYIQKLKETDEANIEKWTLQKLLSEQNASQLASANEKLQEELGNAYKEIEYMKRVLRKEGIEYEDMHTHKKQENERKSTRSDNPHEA
Method: competition protein-binding microarray
Molecule type: double-stranded DNA, one strand shown
Sample: in vitro
Concentration: 2 µM
Setting: whole 60-bp probe, lowest competitor level
With: Pho4 competitor, 0.05 µM
Direction: higher = stronger binding
All sequences stand within: … GTCTTGATTCGCTTGACGCTGCTG
| Oligonucleotide | fluorescence intensity |
| --- | --- |
| AAAAGAATTATTTGTCATGTGATTGCCATCCTACTT | 3110 a.u. |
| CATATGAATTTGCTCTTCTAGTAACTTTGTACACAG | 216 a.u. |
| TATCGAAAAGGTCCTCACGTTATAAGGCTAACAAAT | 113 a.u. |
| ATTGATCCCTGCTGTCATGCCCCTCACCTTCATTCG | 63.1 a.u. |
| GGTTATGGCCTGGATGACCTGTTTTCAATTCAGACA | 67.9 a.u. |
| CTTTTTTTTCTCTCGCCCGTGCCGATCCGTCTTCGA | 75.9 a.u. |
| TGCGCAACAACTTGGGTCGTGGGTGTATGTCTAGAA | 55.9 a.u. |
| CTTTCCCGATCTTGTCACTGGACTTTAGCACATTTG | 94.1 a.u. |
| CAGAAGGACTATTCACACGTGCCAGGCAAATTTTTT | 1480 a.u. |
| AAAGCGGTAATTTGCGAGGTGGGTGCAGATATCTAT | 74.5 a.u. |
| GTCAACAAAGACCCCATCATGACAAAAGCTCAGAAG | 67.9 a.u. |
| CTTTCCCGATCTTGGCTCGTGGGTGTAGCACATTTG | 76.2 a.u. |
| AAAGCGGTAATTTGCTACGTGGGTGCAGATATCTAT | 79 a.u. |
| GTCTTGTCTCATTGTCACGCCACTTTCCCCACTTCA | 246 a.u. |
| TCCGTCAGTGTAGCGCGCGTGCGGACCAGAACGTCT | 57.5 a.u. |
| ACCCGCCCCTCGGGGCACGCGGTCTCCCGGCTTCTC | 61.9 a.u. |
| TGCGCAACAACTTTTCACGTGTGGTTATGTCTAGAA | 683 a.u. |
| CGGTTTTTGGCGCGTTTCGTGACTCGAACACCCAGT | 81.9 a.u. |
| TTACTGACGTTATTGAACGTGAGATTATTTTGCTTG | 95.2 a.u. |
| AGCGTAATCTATACCCACGTAAACCCACTGAGATAA | 78.7 a.u. |

Study 4
Target: RING finger protein unkempt homolog, zinc fingers 1-6, GST-SBP tag (UNK, Homo sapiens, UniProt Q9C0B0, residues 30-357)
UniProt Q9C0B0, sequence (30-357, looked up): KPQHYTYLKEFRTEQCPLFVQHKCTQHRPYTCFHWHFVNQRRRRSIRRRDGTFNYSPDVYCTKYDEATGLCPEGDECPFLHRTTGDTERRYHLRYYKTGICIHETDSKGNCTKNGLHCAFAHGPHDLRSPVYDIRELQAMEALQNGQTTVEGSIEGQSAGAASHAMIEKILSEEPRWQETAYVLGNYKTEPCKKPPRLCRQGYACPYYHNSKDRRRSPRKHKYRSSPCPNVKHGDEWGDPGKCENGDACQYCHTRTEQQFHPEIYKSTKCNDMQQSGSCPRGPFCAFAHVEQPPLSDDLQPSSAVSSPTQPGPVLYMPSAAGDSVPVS
Method: RNA Bind-n-Seq
Molecule type: RNA
Sample: in vitro
Concentration: not given
Setting: RNA with constant flanks, ends assumed
Baseline: input RNA pool
Direction: higher = stronger binding
All sequences stand within: GGGAGUUCUACAGUCCGACGAUC … CAACAGAGGAUUGAGCAUCA
| Oligonucleotide | bound/input enrichment |
| --- | --- |
| GUUUUAAUAAAGGCUCUUGAAAUUACAAAAGCAAGUCACGUGAGCCCCCACCCAGGAGACCGCUGGAUUCCUUUACUCAUUAAUGCCGUUGACCAUUGCAUGAACAGAAUUAAGGCGCUC | 0.255 ratio |
| GUUCGACUUUGGGAUCAUGCUACUAUGACAGAAGUGAAAUCUCUAAAUUUUAAUAUGUCUGUCCGCCGUAUGGAAUAUAUUCCUGAGGGAGAGAUUUUGGUUAUAACUUAUGGACGAUCU | 0.352 ratio |
| UUUUGGAAACAGUUCAGGCUUUGGGGUGAGCCUGUUAAUCUGCGUGAACAACACGAUGCUUCCGAAUUUUUUAAUUCAUUGGUGGAUAGUUUAGAUGAAGCUUUAAAAGCUUUAGGACAU | 1.5 ratio |
| UCCUGUCUCGAUUUACUCGAAAUGAGUUUAAUCUGGAAAGCAAGAGCACCAUUGGAGCCGAGUUUGCAACAAGAAGCAUCCAGGUUGAUGGAAAAACAAUAAAGGCACAGAUAUGGGACA | 0.241 ratio |
| UACUGCUGGUAUUGUACCAGGAACAUUUUCUUUUAUUGUUACUUGCUUUUUAAACUUUGUUCCGCCACUUAAAGAAAACCUGCUCAUGGCACAACUUGCCUCAAAUCCAUUCCAAGUUGU | 0.481 ratio |
| ACUCACGUGCCCAUGUUACAAGUCUGGACUGCCGACAAACCACAUCCACAGGAAGAGUAUUCCGAUUGCCUGUGGGCCCAGAUUCAGAAAUUGAAAAAAGACCGGUGGCAGGAGAGGCAC | 0.202 ratio |
| GGAUUCCGGUUCCGGUGGGCCUCCAUCAGCAAGCUCCAGUGCUACGUGUCCCUGGCAUUUCCGGUGUCGGUUGGGUAGGCAGUCAUGGAUCAGGUAAUGCAGUUUGUUGAGCCAAGUCGG | 0.202 ratio |
| UGUGAGCAGAAAAGAGGCAAAGAUAAUAAAGCUAUUAUUGCAUCGAAUAUCAUGUACACCGCCGGUCAAUACCCAAGAUUUUUGAGAGCACACUGGAAAUUUUUGAAGACAGUAGUAAAC | 0.23 ratio |
| ACAUUAAAGUCCUAAGUCAUCUAAGCCAUUCAUUGCCUGUGAAUUAUUCUGCUUGCUUUUUCCGUCAGGUGCUGCUUUUAAACAUUCUGAUGGGGAGCCUAGGGUUUAAAAUUAGCCUGU | 1.45 ratio |
| GGCUAUUUAUUGCAUUCUCCUUUGUAAACCCAGUCUAGGGUAAGCUUAAUACUUUACCCACAGGGCCGCUCUUCAGAAAACCUAAUCAGUCUAUUUUGUGCCCAGGUUUGUGUGUGUGUG | 0.409 ratio |
| GGGAGCGCAGAGCGGCCUUUCCAGCAUGCAGCGGCUGCUCAGAGUAUAGAAAUAUCAAGAAACCGGAGAGAAUUCAACCAUGGCCCCACGGAAGAGAGGCGGCCGGGGGAUUUCAUUUAU | 0.44 ratio |

Study 5
Target: Sal-like protein 4, full length isoform B (SALL4, Homo sapiens, UniProt Q9UJQ4-2, residues 1-616)
Method: universal PBM
Molecule type: double-stranded DNA, one strand shown
Sample: in vitro
Concentration: not given
Setting: 8-mer, flanks averaged, mean of replicates
Direction: higher = stronger binding
| Oligonucleotide | E-score |
| --- | --- |
| ATATTACC | 0.339 |
| CTCCTTAA | 0.0138 |
| GGATTTGA | 0.0181 |
| TCATTTCA | 0.231 |
| GCACTTGA | -0.181 |
| AGGTTGTG | -0.0158 |
| CTTTCGGA | -0.0175 |
| CTAGAGCC | -0.157 |
| ACGTGCAG | -0.0624 |
| GGGTGGTA | -0.0993 |
| CCGGGCAA | -0.265 |
| TCCGCAGA | -0.134 |
| GAGGTATA | 0.182 |
| ACTTAACG | -0.125 |
| ACGGGGGG | -0.294 |
| ACTTGCCC | -0.114 |
| CTATGGGA | 0.024 |
| AAGAAGAA | 0.149 |
| AGGTAGTA | 0.164 |
| CATGCATC | -0.0678 |
| CGGATGTA | -0.0414 |
| TCGAAAGA | 0.122 |
| ATCCAGAT | 0.0144 |
| ACTAGACT | -0.0755 |
| CCTACCAC | -0.294 |
